Measurements of several laboratories.
Numbered parts are unrelated; each lists some results of a single study. Positions count from the first letter of the parent shown.

Block 1 — method: competition protein-binding microarray; form: double-stranded DNA, one strand shown; matrix: in vitro; tested at: 2 µM; together with: Cbf1 competitor, 0.05 µM; reading: higher = stronger binding
Target: Phosphate system positive regulatory protein PHO4, full length, GST-tagged (PHO4, Saccharomyces cerevisiae, UniProt P07270, residues 1-312)
Notes: whole 60-bp probe, lowest competitor level
Target sequence (chain): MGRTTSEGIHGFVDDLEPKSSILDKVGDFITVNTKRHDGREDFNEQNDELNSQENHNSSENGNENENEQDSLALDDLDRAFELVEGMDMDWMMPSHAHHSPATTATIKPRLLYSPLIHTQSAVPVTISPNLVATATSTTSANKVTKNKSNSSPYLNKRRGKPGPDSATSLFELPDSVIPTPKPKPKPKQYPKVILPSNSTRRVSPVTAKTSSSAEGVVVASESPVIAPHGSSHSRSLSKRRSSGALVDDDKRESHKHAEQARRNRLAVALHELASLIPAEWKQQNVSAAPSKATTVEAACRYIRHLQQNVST
Sequence | fluorescence intensity [a.u.]
AATTTCAACGACAGGTTCGTGCTTTTCACCTTCACCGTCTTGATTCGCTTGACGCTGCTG | 6100
TGCGCAACAACTTGCGTAGTGGGTGTATGTCTAGAAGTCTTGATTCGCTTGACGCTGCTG | 5200
ATTCTCGTAATTATTCTCGTGATGGCGTTTGCAACCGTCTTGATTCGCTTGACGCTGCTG | 5400
GAGCTTGTGGGTCAACACGTTTCTTGGGATGAGACAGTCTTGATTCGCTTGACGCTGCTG | 13100
GAAAATCATCCATTACACGTGTTTTCCTCTTTGATTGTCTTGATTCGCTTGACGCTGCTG | 18400
CTGGTGTCTAATATGCACATGCCTGGTACTACCAGTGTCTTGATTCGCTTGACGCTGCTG | 9890
CATACCCAACCTTGTAGAGTGGGTGAAGATATTTGTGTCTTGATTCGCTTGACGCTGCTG | 3720
GGCGGGTTTCTTCGGCACGCACAGGAGGCACCCCAGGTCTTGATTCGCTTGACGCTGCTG | 8300
CACCAATTCCCAGAGCACATGATGCCTCCACGGAATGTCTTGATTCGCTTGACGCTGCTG | 11300
TTAATACTGCCTGACGGCGTGCCAGAACAAGGAGCAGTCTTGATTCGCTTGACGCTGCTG | 7340
AGGCAGGCGAACATCAACGTGATGGTTACCAACAGCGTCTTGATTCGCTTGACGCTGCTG | 10000
CATACCCAACCTTGTATAGTGGGTGAAGATATTTGTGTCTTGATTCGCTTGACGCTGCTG | 4060
TGCGCAACAACTTGTCACCTGACTTTATGTCTAGAAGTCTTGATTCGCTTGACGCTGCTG | 3200
CTAACGAAGGTTTAGCACGTGTTTTACAAGCCAAGTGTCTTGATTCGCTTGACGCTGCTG | 17100
AGGATGAGGAGGAGTTAGCAGAGGTATTCGCTAAGCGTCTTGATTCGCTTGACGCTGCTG | 3010
ATGAGCTACATTCACCACGTGTCGGAGACTGGGAAAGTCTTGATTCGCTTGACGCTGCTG | 16000
GAATTTACTAACGAACTCGTGTTCCGGACCGCTGGCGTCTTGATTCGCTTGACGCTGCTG | 8180
CGCCTTGTGCTACTGGACGTGTGTTTGGTTTTATGTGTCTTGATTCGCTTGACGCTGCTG | 8770
CTTCGCGCCACATCGCACGGGTGCAGGAACAACTGTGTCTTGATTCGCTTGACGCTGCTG | 8520
TTTTTAATGATTTCGCATGTGGATGTGTTCAGTATCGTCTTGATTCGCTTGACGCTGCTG | 8890
GTCTTGTCTCATTGTCTCGTGGGTGTCCCCACTTCAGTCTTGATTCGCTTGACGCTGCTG | 9600
TTACGGTAGAGGGAGCACATGGGCGGAAACAAACCTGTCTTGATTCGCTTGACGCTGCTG | 10200
ACCACAGTGTCGGCCAACGTGCTTTACATTGAAGATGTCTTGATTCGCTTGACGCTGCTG | 14300
AGTAGAAACAATAGTATCGTGATGGGATCCCTCTTGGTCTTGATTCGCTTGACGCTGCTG | 4930
CGTCCTAGTGATTGGTTTGTGGGTGCCATGAGGAAGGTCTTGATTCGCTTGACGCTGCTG | 7530

Block 2 — method: DHFR PCA, deep sequencing; matrix: yeast; together with: (+)-ABA 58 µM; baseline: wild-type fitted maximum; reading: higher = stronger binding
Target: ABI1, truncated, D143A, DHFR fusion (Arabidopsis thaliana)
Notes: methotrexate growth selection, single substitutions
Starting sequence: PYL1, truncated, DHFR fusion (Arabidopsis thaliana); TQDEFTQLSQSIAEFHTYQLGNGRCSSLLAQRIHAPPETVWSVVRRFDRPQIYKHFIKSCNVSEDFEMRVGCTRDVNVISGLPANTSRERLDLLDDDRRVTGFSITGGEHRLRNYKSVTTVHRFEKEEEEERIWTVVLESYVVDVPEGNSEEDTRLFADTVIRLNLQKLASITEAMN
Variant | relative binding score [%]
T17I | 55.1
L166Y | -8.26
E64M | 76.3
E129M | 88
E109P | 29.3
L8F | 91.3
H34I | 83
K116T | 84.6
E67P | 74.1
T39W | 70.9
Q167T | 81.4
R123N | 89.5
A35V | 49.2

Block 3 — target: UBE2R2 UBC core domain (UniProt Q712K3); method: yeast two-hybrid; matrix: yeast; notes: mostly zero background; baseline: not given; reading: higher = stronger interaction
B1: TRIM37 RING domain (UniProt O94972); chain SVESIAEVFRCFICMEKLRDARLCPHCSKLCCFSCIRRWLTEQRAQCPHCRAPLQLRELVN
B2: TRIM60 RING domain (UniProt Q495X7); chain ALVNLQEESSCPICLEYLKDPVTINCGHNFCRSCLSVSWKDLDDTFPCPVCRFCFPYKSFRR
B3: RNF166 RING domain (UniProt Q96A37); chain GDSGLEAQYTCPICLEVYHRPVAIGSCGHTFCGECLQPCLQVPSPLCPLCRLPFDPKKVDK
B4: RNF183 RING domain (UniProt Q96D59); chain EQQGRELEAECPVCWNPFNNTFHTPKMLDCCHSFCVECLAHLSLVTPARRRLLCPLCRQPTVLASGQP
B5: TRIM31 RING domain (UniProt Q9BZY9); chain FVNKLQEEVICPICLDILQKPVTIDCGHNFCLKCITQIGETSCGFFKCPLCKTSVRKNAIRF
B6: TRIM22 RING domain (UniProt Q8IYM9); chain VKVDIEKEVTCPICLELLTEPLSLDCGHSFCQACITAKIKESVIISRGESSCPVCQTRFQPGNLRP
B7: MYCBP2 RING domain (UniProt O75592); chain TSLKQDADDMCMICFTEALSAAPAIQLDCSHIFHLQCCRRVLENRWLGPRITFGFISCPICKNKINHIVLKD
Construct (chain): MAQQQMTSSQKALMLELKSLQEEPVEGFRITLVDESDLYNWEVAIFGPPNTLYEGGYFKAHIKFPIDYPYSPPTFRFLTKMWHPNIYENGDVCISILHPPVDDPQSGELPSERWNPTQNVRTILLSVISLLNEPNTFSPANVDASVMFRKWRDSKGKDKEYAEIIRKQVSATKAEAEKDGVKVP
Sequence | lacZ reporter activity
B1 (TRIM37 RING domain) | 0
RYRQMEERITCPICIDSHIRLVFQCGHGACAPCGSALSACPICRQPIRDRIQIF (MIB2 RING domain (UniProt Q96AX9)) | 0
B2 (TRIM60 RING domain) | 0
B3 (RNF166 RING domain) | 0
YPEEVDDDLICHICLQALLDPLDTPCGHTYCTLCLTNFLVEKDFCPMDRKPLVLQHCKK (LNX1 RING domain (UniProt Q8TBB1)) | 0
B4 (RNF183 RING domain) | 0
LDAASGHPLVCPLCHGQYERPCLLDCFHDFCTGCLRGRATDGRLSCPLCQHQTLVKGPSG (Rnf207 RING domain (UniProt Q3V3A7)) | 0
B5 (TRIM31 RING domain) | 0
AEADPLGRFTCPVCLEVYEKPVQVPCGHVFCSACLQECLKPKKPVCGVCRSALAPGVRAV (RNF114 RING domain (UniProt Q9Y508)) | 0
B6 (TRIM22 RING domain) | 0
PEELAVNNDDCAICWDSMQAARKLPCGHLFHNSCLRSWLEQDTSCPTCRMSLNIADNNR (AMFR RING domain (UniProt Q9UKV5)) | 0
B7 (MYCBP2 RING domain) | 0

Block 4 — method: protein-binding microarray; form: double-stranded DNA, one strand shown; matrix: in vitro; tested at: 940 nM top; notes: 60-bp whole probe; together with: salmon DNA 0.4 mg/ml; baseline: random background probes; reading: higher = stronger binding; shared flanks, not repeated: GCCTAGCAC … GTCTTGATTCGCTTGACGCTGCTG
Target: Interferon regulatory factor 5, full length, phosphomimetic (IRF5, Homo sapiens, UniProt Q13568-2, residues 1-514, S451D/S453D/S456D/S462D)
Sequence | fitted relative affinity [z-score]
TCATGTTTGATAATTTTACTGTGCTAG | 0.167
TTTAGCAGACTGAGAGGAACGTGCTAG | -0.59
TCAGGTATCGACTATCGGTTAGTGCTA | 5.12
TTAGATTCCAGTTTCGATTGGTGCTAG | 8.35
TTAGGGCTGGGACTGGGTTAGTGCTAG | -0.287
TTAGGTATCGACACTGGATTAGTGCTA | 5.3
GACAGTCTCGGACTGGGGACGTGCTAG | 1.69
GACGTTTTCCTTCTCCTGACGTGCTAG | 0.901
TCACCACTCTTTCCTCACACTGTGCTA | 1.39
TTAGATTTCGGGCTTCGATTAGTGCTA | 0.676
TCAGGTTTCGGTTCCGGTTAGTGCTAG | 13.4
TTAGCACTGGGGTTTCGATTAGTGCTA | 5.5
TTAGGTATACTACTGCTTTAGTGCTAG | -0.477
TTAGGACTGGACTTTCGGTCAGTGCTA | 2.06
ATGGGTATGGCCTATTTATATGTGCTA | -0.122
TCAGGTTTCACTTTAAAACTGTGCTAG | 8.24
CAACATCTGCAAGATCCACAAGTGCTA | -0.299
TCTAATCTCACTCTGTCCCTGTGCTAG | 1.99
CTCTCATTCCAATTCTTTTTGTGCTAG | 3.05
GGTCTTTCTGTTTTCTCCATGTGCTAG | 2.83

Block 5 — target: CCNB3, cyclin fold, Cln2 fusion (human); method: yeast growth competition, sequencing; matrix: yeast; notes: weak parent motif; baseline: not given; reading: higher = stronger binding
Starting sequence: SAMHD1 docking peptide (human); ASKSRVQLFKDDP; partner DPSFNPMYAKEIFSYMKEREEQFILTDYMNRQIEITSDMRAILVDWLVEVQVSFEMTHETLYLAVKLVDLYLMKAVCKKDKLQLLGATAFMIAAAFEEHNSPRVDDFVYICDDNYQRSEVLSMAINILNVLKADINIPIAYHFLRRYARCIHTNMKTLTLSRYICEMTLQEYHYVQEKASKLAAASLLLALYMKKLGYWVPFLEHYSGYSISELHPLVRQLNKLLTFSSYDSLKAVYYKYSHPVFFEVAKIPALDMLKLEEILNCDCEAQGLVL
Variant | normalised enrichment score
L8V | 0.0982
S4L | 0.185
V6I | -0.267
S4F | 0.14
S2W | 0.156
S2D | -0.192
S4W | 0.0772
S4K | -0.351
F9E | -0.182
Q7T | 0.0449
R5H | -0.144
R5L | -0.305
K3N | -0.401
S4I | 0.545
D11L | 0.0271
F9N | 0.0634
R5D | -0.129
L8F | -0.0596
